{"data": "Assay results pooled from the literature", "note": "A part holds a random share of what one study measured.", "chain of UniProt Q8N4C8 (whole entry, looked up)": "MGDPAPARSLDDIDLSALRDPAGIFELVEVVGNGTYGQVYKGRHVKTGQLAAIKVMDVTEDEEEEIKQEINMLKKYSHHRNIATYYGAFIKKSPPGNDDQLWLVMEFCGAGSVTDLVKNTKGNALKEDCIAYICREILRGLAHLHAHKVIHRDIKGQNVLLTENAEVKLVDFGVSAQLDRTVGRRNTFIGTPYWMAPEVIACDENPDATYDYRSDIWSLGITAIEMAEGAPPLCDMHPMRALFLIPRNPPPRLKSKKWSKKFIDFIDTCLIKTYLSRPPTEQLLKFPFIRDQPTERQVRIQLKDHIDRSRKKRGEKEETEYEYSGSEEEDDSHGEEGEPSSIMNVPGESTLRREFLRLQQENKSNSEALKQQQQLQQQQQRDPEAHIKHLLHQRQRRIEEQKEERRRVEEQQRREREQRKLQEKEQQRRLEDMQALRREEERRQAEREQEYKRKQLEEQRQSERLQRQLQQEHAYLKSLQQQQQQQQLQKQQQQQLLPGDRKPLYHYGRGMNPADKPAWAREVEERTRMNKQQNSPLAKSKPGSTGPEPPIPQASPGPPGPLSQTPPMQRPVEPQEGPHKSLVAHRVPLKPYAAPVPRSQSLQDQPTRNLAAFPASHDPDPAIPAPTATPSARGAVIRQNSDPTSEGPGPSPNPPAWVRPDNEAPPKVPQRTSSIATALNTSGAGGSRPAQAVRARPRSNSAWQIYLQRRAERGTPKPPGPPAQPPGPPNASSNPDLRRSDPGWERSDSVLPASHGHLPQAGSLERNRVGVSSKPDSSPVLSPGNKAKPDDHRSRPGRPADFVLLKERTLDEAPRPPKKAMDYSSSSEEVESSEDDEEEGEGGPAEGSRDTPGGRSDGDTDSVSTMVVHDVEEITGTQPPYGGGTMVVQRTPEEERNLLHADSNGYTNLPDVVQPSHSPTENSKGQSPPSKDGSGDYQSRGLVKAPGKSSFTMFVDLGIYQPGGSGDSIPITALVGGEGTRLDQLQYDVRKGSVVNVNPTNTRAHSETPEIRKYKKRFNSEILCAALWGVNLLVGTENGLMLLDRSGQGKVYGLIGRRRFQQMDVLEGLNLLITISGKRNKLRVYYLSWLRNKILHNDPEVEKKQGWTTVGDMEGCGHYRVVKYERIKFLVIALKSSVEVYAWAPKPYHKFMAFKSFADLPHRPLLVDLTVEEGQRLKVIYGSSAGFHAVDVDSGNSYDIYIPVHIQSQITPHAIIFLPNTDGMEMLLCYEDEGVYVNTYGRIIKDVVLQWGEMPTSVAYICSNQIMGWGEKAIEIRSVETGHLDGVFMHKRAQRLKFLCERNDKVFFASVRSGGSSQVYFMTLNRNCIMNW", "chain of UniProt Q13464 (whole entry, looked up)": "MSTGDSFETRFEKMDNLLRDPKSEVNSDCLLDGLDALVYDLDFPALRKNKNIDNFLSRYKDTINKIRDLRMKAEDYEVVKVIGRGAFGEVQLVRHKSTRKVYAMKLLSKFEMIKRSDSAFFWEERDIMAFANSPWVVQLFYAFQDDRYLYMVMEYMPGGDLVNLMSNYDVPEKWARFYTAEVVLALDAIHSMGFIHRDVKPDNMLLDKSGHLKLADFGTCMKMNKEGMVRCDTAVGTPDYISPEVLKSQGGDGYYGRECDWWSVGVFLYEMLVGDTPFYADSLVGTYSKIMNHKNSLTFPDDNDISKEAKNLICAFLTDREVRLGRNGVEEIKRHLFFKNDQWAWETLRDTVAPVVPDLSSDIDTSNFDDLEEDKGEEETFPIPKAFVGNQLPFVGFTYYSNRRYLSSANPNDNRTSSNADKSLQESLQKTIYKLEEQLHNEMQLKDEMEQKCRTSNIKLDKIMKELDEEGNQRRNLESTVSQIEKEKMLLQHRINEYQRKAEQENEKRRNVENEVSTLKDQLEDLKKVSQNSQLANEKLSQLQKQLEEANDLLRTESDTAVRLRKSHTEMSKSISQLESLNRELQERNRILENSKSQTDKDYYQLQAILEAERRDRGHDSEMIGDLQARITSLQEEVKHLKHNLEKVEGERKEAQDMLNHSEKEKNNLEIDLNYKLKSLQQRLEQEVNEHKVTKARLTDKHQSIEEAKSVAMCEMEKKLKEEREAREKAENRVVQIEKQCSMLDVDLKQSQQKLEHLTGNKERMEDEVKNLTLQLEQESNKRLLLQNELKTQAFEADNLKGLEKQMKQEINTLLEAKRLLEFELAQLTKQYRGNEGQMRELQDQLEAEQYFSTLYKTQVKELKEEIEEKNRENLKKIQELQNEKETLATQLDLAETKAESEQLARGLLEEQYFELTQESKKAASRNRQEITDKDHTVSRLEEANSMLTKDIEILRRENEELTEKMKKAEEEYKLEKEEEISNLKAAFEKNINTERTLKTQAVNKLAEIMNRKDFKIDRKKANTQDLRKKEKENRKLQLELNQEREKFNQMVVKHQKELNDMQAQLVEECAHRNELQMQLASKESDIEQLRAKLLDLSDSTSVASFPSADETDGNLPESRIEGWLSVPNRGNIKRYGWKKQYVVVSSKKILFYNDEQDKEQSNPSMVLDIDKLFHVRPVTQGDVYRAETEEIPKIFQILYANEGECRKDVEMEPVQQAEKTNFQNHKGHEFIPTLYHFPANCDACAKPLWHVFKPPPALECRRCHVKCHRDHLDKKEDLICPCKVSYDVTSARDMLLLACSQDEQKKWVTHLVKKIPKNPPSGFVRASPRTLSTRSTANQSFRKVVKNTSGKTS", "chain of UniProt O15264 (whole entry, looked up)": "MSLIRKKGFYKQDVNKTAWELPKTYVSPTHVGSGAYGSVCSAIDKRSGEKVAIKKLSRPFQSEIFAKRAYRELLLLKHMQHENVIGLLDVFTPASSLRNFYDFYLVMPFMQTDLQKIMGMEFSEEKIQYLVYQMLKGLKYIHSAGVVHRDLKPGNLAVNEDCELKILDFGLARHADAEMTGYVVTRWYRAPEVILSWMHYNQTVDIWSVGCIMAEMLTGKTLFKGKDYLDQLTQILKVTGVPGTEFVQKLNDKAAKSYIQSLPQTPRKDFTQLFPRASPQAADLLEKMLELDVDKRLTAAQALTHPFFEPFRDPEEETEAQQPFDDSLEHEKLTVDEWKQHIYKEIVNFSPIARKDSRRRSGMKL", "chain of UniProt Q02750 (whole entry, looked up)": "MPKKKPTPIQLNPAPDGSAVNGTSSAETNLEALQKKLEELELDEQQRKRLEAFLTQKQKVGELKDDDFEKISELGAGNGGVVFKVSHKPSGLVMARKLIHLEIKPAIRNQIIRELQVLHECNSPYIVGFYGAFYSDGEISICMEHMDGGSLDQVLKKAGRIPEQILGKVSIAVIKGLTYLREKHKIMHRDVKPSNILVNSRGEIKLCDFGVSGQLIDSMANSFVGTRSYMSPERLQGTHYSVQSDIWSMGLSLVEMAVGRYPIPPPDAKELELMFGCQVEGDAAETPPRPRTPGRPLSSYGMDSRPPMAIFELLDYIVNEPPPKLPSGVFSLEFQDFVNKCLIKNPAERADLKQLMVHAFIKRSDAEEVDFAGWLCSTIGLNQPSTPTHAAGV", "chain of UniProt P09619 (whole entry, looked up)": "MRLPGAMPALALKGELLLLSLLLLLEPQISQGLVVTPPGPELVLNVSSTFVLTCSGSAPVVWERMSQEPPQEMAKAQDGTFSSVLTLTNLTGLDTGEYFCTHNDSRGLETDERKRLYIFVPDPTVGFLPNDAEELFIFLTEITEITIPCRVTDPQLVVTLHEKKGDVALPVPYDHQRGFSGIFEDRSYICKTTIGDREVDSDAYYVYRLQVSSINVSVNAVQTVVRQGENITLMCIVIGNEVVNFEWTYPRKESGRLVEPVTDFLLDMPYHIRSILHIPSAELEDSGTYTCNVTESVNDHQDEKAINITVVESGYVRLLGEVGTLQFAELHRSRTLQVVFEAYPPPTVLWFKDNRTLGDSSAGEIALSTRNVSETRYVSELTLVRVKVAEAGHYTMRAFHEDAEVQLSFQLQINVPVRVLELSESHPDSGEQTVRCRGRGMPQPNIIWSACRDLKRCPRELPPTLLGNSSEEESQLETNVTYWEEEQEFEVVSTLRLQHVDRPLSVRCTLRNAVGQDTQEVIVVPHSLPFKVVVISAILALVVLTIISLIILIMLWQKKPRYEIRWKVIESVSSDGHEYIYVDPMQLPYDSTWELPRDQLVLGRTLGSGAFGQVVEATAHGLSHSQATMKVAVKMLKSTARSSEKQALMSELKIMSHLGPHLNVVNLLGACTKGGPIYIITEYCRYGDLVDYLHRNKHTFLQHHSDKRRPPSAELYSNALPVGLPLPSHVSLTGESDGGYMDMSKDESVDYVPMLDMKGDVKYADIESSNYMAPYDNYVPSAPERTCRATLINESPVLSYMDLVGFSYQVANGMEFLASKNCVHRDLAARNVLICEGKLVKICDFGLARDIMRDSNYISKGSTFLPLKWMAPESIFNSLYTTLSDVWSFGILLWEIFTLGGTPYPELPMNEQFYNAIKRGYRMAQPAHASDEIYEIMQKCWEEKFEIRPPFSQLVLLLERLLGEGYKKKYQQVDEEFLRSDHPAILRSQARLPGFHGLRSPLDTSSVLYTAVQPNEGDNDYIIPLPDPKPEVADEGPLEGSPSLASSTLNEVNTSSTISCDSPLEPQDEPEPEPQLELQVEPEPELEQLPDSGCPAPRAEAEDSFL"}
{"data": "Block 1", "SMILES": "Nc1c(C(=O)NCc2ccc(C(=O)NCCCC3CCCCC3)cc2)cnn1-c1ccccc1", "effect on": "cell-free assay", "method": "competition with immobilised ligand", "concentration": "0.1 µM"}
{"target": "CSNK1G2 (Homo sapiens, UniProt P78368)", "remaining binding [%]": 94}
{"target": "Ribosomal protein S6 kinase alpha-4, N-terminal kinase domain (RPS6KA4, Homo sapiens, UniProt O75676)", "remaining binding [%]": 85}
{"target": "PRKG2 (Homo sapiens, UniProt Q13237)", "remaining binding [%]": 96}
{"target": "KDR (Homo sapiens, UniProt P35968)", "remaining binding [%]": 100}
{"target": "MAPK10 (Homo sapiens, UniProt P53779)", "remaining binding [%]": 100}
{"target": "PRPF4B (Homo sapiens, UniProt Q13523)", "remaining binding [%]": 100}
{"target": "PAK2 (Homo sapiens, UniProt Q13177)", "remaining binding [%]": 66}
{"target": "MAPK13 (Homo sapiens, UniProt O15264)", "remaining binding [%]": 100}
{"target": "Ribosomal protein S6 kinase alpha-6, N-terminal kinase domain (RPS6KA6, Homo sapiens, UniProt Q9UK32)", "remaining binding [%]": 100}
{"target": "PDGFRB (Homo sapiens, UniProt P09619)", "remaining binding [%]": 100}
{"data": "Block 2", "host": "mouse", "sample": "microsomes or S9", "concentration": "2 µM", "time": "0.5 h"}
{"Compound": "COCCCn1c(C(=O)Nc2cc(Cl)ccc2OC)cc2c(=O)n3ccccc3nc21", "remaining compound": "3.49%"}
{"Compound": "Cc1cc(C(C)(C)c2cc(C)c(N)c(C)c2)cc(C)c1N", "remaining compound": "87.3%"}
{"Compound": "COc1cc(Cn2c(-c3nnc(C)o3)cc3ccccc32)cc(OC)c1", "remaining compound": "7.61%"}
{"Compound": "COC(=O)Cn1c(=O)cc(C)c2c(OC)ccc(OC)c21", "remaining compound": "0.11%"}
{"Compound": "COC(=O)c1ccc(/C=C(\\COc2cccc3ccccc23)CN(CCCN(C)C)C(=O)OC(C)(C)C)cc1", "remaining compound": "5.22%"}
{"Compound": "COCCn1cc(C(=O)NCc2nc3ccccc3[nH]2)c2ccccc2c1=O", "remaining compound": "23.9%"}
{"data": "Block 3", "target": "Calcium/calmodulin-dependent protein kinase type II subunit alpha (CAMK2A, Homo sapiens, UniProt Q9UQM7)", "effect on": "enzyme activity", "action": "inhibitor", "concentration": "10 µM", "chain of UniProt Q9UQM7 (whole entry, looked up)": "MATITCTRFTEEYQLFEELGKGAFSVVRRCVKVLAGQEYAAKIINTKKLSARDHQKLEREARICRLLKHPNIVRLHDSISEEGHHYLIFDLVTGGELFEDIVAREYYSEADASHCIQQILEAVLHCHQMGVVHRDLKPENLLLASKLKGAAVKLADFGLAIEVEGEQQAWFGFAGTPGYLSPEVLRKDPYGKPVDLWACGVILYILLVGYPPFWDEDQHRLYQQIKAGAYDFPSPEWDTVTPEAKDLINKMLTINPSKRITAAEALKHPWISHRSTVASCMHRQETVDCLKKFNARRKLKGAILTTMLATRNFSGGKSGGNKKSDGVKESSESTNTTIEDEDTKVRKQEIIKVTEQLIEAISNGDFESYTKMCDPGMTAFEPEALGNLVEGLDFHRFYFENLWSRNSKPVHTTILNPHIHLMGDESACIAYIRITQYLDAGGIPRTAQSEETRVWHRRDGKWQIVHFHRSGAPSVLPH"}
{"SMILES": "NC(CO)C(=O)O (racemic)", "inhibition": "23%"}
{"SMILES": "COc1cc(C(=O)O)ccc1O", "inhibition": "-90%"}
{"SMILES": "O=C(CCCCC(=O)Nc1c(I)cc(I)c(C(=O)O)c1I)Nc1c(I)cc(I)c(C(=O)O)c1I", "inhibition": "-7%"}
{"SMILES": "O=C(O)[C@@H](O)Cc1ccccc1", "inhibition": "21%"}
{"SMILES": "Cc1cnc(C)cn1", "inhibition": "-44%"}
{"data": "Block 4", "Structure (SMILES)": "Nc1[nH]nc2nnc(-c3c(-c4ccccc4)nn4ccccc34)cc12", "effect on": "enzyme activity", "action": "inhibitor", "concentration": "0.5 µM", "reference": "control"}
{"target": "CAMK4 (Homo sapiens, UniProt Q16566)", "remaining activity [%]": 94.2}
{"target": "DDR2 (Homo sapiens, UniProt Q16832)", "remaining activity [%]": 101}
{"target": "CLK3 (Homo sapiens, UniProt P49761)", "remaining activity [%]": 94.9}
{"target": "MAPK11 (Homo sapiens, UniProt Q15759)", "remaining activity [%]": 90}
{"target": "MET (Homo sapiens, UniProt P08581)", "remaining activity [%]": 95}
{"target": "MARK4 (Homo sapiens, UniProt Q96L34)", "remaining activity [%]": 105}
{"target": "Cyclin-dependent kinase 9, with cyclin K (CDK9, Homo sapiens, UniProt P50750)", "remaining activity [%]": 98.5}
{"target": "MAPK14 (Homo sapiens, UniProt Q16539)", "remaining activity [%]": 94.6}
{"target": "MINK1 (Homo sapiens, UniProt Q8N4C8)", "remaining activity [%]": 73}
{"target": "TXK (Homo sapiens, UniProt P42681)", "remaining activity [%]": 88.8}
{"target": "ROCK1 (Homo sapiens, UniProt Q13464)", "remaining activity [%]": 100}
{"target": "AKT2 (Homo sapiens, UniProt P31751)", "remaining activity [%]": 97.5}
{"target": "MAP2K1 (Homo sapiens, UniProt Q02750)", "remaining activity [%]": 94.3}
